Results pooled from the literature.
Parts stem from different laboratories: compare values within a part only. Changes are numbered by the printed parent chain.

Study 1
Target: Prothrombin, mature alpha-thrombin (F2, Homo sapiens, UniProt P00734)
Technique: aptamer microarray, sandwich
Form: DNA with 2'F-ANA
Matrix: in vitro
Concentration: 200 nM
Setting: whole 15-mer aptamer, many near background
Added: Cy3 exosite-II aptamer, 400 nM
Direction: higher = stronger binding
Quantity: mean fluorescence intensity
Oligonucleotide: GGTTGGTGTGGTTGG
2'F-ANA at 5 6 7 8 11 13 14 15: 49.1 a.u.
2'F-ANA at 4 6 9 11 12 13 14: 81.7 a.u.
2'F-ANA at 1 3 6 8 10 13: 159 a.u.
2'F-ANA at 1 4 11 13 15: 78.6 a.u.
2'F-ANA at 4 5 6 7 10 11 13: 56.4 a.u.
2'F-ANA at 1 2 3 4 6 7 8 9 11 15: 139 a.u.
2'F-ANA at 7 8 9 14 15: 234 a.u.
2'F-ANA at 1 5 6 7 11 15: 63.2 a.u.
2'F-ANA at 2 4 6 7 13 14: 86.5 a.u.
2'F-ANA at 1 5 7 8 9 11 12 14 15: 50.8 a.u.
2'F-ANA at 1 2 3 5 6 7 10 11 12 14: 63.9 a.u.
2'F-ANA at 3 6 8 10 11: 459 a.u.
2'F-ANA at 1 3 5 6 7 9 10 11 13 14: 128 a.u.
2'F-ANA at 1 3 4 7 8 9 12 13: 286 a.u.
2'F-ANA at 5 6 7 11 12 13 15: 113 a.u.
2'F-ANA at 2 3 4 10 12: 303 a.u.
2'F-ANA at 1 2 4 5 7 8 10 12: 57.1 a.u.
2'F-ANA at 2 3 4 5 6 9 11 12: 151 a.u.
2'F-ANA at 1 3 6 8 9 11 12 13 15: 367 a.u.

Study 2
Target: CCNF, cyclin fold, Cln2 fusion (human)
Technique: yeast growth competition, sequencing
Matrix: yeast
Setting: strong parent motif
Relative to: not given
Direction: higher = stronger binding
Quantity: normalised enrichment score
Starting sequence: MICAL3 docking peptide (human); LQLRRQLSFSEDS
L3A: 6.97
Q6K: 6.61
Q2I: 3.98
F9H: -0.371
E11M: 5.55
Q2G: 5.37
Q6V: 3.8
L3Q: 2.97
R4E: 0.0487
D12C: 5.84
E11Q: 5.36
L3P: 5.91
D12H: 5.86
E11G: 5.49

Study 3
Target: ABI1, truncated, D143A, DHFR fusion (Arabidopsis thaliana, UniProt P49597)
Technique: DHFR PCA, dose-response
Matrix: yeast
Setting: Hill fit, mean, not affinity
Added: (+)-ABA, dose series
Direction: lower = more sensitive
Quantity: ABA EC50
Starting sequence: PYL1, truncated, DHFR fusion (Arabidopsis thaliana, UniProt Q8VZS8); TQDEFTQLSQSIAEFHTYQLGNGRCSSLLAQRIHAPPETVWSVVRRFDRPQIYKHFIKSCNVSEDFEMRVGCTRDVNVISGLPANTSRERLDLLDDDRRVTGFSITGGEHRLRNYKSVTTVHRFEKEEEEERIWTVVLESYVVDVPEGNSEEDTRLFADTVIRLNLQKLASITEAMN
T160H: 6.93 µM
T101K: 544 µM
S150G: 21.1 µM
V70M: 22.3 µM
K126R: 2.29 µM
S11G: 8.04 µM
L156V: 1.38 µM
I172Q: 27.9 µM
T39I: 5.93 µM
E129H: 2.14 µM
F56Q: 453 µM
T106P: 461 µM
A170D: 337 µM
R155Y: 134 µM
G21V: 1.46 µM
W134L: 1.64 µM
S171T: 1.53 µM
N165G: 596 µM
R111E: 196 µM
N177V: 1.06 µM
T173P: 525 µM

Study 4
Target: Ras GTPase-activating protein-binding protein 1, C-terminal RGG region (G3BP1, Homo sapiens, UniProt Q13283)
UniProt Q13283, sequence (whole entry, looked up): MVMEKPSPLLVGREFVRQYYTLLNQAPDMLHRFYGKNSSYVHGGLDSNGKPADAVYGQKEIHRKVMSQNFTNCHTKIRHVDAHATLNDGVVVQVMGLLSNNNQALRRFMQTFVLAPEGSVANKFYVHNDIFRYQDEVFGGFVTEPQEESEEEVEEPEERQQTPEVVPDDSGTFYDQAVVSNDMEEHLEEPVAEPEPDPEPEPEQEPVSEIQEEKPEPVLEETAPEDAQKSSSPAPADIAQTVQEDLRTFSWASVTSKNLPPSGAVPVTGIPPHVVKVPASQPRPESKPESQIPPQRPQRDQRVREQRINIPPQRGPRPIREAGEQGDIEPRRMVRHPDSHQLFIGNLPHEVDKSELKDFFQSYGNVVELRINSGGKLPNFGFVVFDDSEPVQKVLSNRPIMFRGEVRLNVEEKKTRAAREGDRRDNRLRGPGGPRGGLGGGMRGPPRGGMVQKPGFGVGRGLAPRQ
Technique: RNA Bind-n-Seq
Form: RNA
Matrix: in vitro
Concentration: 1 µM
Setting: whole 134-nt RNA, ends assumed
Added: 150 mM KCl
Relative to: input library
Direction: higher = stronger binding
Quantity: log2 enrichment
Shared flanks, not repeated: GGGAGUUCUACAGUCCGACGAUC … UGGAAUUCUCGGGUGUCAAGG
CUCAAGUCCUGUGCUACACAUCGUAUGUACCGAAUCGGAAAGGAAAAAGGAGGAAAGUAUUAUGUUACGCCGUUCGGAUCUGCACUUCCA: -1.3
AGUCCUGUGCUACACAUCGUAUGUACCGAAUCGGUUUUUUUGGAAAAAGGAAAAAGGAAAGUAUUAUGUUACGCCGUUCGGAUCUGCACU: -2.3
CCUGUGCUACACAUCGUAUGUACCGAAUCGGGGUUUUUGGGGAAAAAGGGGUUUUUGGGGAAAGUAUUAUGUUACGCCGUUCGGAUCUGC: 1.52
UAACUUUAGAGGAGGAUCUGAUGGAUAUGGCAGUGGACGUGGAUUUGGGGAUGGCUAUAAUGGGUAUGUAGGAGGACCUGGAGGUGGCAA: -0.759
AAGUCCUGUGCUACACAUCGUAUGUACCGAAUCGGUUUUGGGUUUUGGGUUUUGGGGAAAGUAUUAUGUUACGCCGUUCGGAUCUGCACU: -0.847
CCAGAGCCAGAGAGCUUGGGCCCUGGGACGCCUGGGUUCCCCGAGCAGGAGGAAGACGAACUUCACCGCACCCUGGGCGUGGAGCGGUUU: -1.29
UAACUUUAGAGGAGGAUCUGAUGGAUAUGGCAGUGGACGUGGAUUUGGGGAUGGCUUUAAUGGGUAUGGAGGAGGACCUGGAGGUGGCAA: -1.2
GCAGGAAGUAAAAACAAAUGGAAAUGAAACGGAUAGUGGCAGGGGUGGGGGUUGCUAAGGAAAGGGUGGGAUGGGAGUGGGUAAAGAGUU: 2.23
GGUGGAAUCCAUAGAGCUCCCCAUGGACAACAAGACCAAUAAGAGGCGUGGGUUCUGCUUUAUUACCUUUAAGGAAGAAGAACCAGUGAA: -1.21
